Experimental data gathered from unrelated publications.
Each numbered part is a random draw from the data of one study; scales do not carry over between parts. Substitutions count along the parent as printed.

Set 1
Target: HLA class I histocompatibility antigen, A alpha chain, allele A*80:01 (Homo sapiens, UniProt P04439)
Read-out: peptide-MHC binding
Molecule type: peptide
Concentration: concentration not given
Quantity: binding
QQDTNSAGL: inactive
LEFNSSLAI: inactive
VTDTALAYF: inactive
FTDISMSLY: inactive
VSDFRKEFY: inactive
RAYAAMHLW: inactive

Set 2
Target: RNA binding protein fox-1 homolog 2, RRM domain, GST-SBP tag (RBFOX2, Homo sapiens, UniProt O43251-10, residues 100-194)
Method: RNA Bind-n-Seq
Molecule type: RNA
Medium: in vitro
Concentration: 365 nM
Notes: natural RNA segment, single round, ends assumed
Relative to: no-protein control
Direction: higher = stronger binding
Quantity: RBNS enrichment (R)
Constant ends, left off below: GGGAGUUCUACAGUCCGACGAUC … UGGAAUUCUCGGGUGCCAA
Residues (chain): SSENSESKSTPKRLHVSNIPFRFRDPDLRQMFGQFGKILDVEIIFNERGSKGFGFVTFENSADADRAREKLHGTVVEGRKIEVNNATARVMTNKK
GUACCAGUAGCCUCCCGUCCUAAUUCUGUUCAAUAUCAGUUGUUCCUAAUAAGUAGAAUACACUACUGUCAACACCUGACCUUCGUUUUUGUCUUGUGUUGGGGUUAGAG: 0.548
AUUUUUAUUUUUUUUAUUAUUAAAUGAUGUGGUCUAUGGAAAAAAAAAUAAAAAUCUGACUUAGUUUAAACUGUGUGAGUGGCUUUCUUUGGGCAGGUUAAGAAGCCACU: 1.2
AAGAGAACUCCAGGCUCAGCAUUCUGUUGAGUAACUUGCUACCUGCUCGGCUUUCCACUCUGCCAGGUCCACAUGGCAGGUGCCUCUCCUUCAUUUCUGGUGGCUUGGCU: 0.269
CUUUUUGUAUUUUUUAGUAGAGAUGGGGUUUACCAUGUUGGCCAGGCUAGUCUCAAACUCCUGACCUAGUGAUGCACCCACCUUGGCCUCCCAAAGUGUUGGGAUUACAG: 0.48
UAGAAAUCCAUGAACACUAAAGGACUUCAUUGAUUUUUUCAGAGAGUAGAAAACAACUUAGUUUUUCUUUUUUCCUGAAUGCGUCAUAGGCUUGUGAGUGAUUUUUGUCC: 0.62
GCUCAAGCAAUCCUCCCACUUUAGCCUCCUGAGUAGCUGGGACUACAGGCGUGUGCCAGCGCGCCUGGCUAAUUUUAAAAUUUUUUUGUAGAGACAGAGUCUCCCUCUGU: 0.525
GAAGCAAUGUUAAAUCAUUCAGGUUUUAUUUUCUGCCCUGAAGCAGAAAUUUAAAAAAUGAUAUUGGGACCUGGAAGGUUUAAUAUGGUUCACAGUGCCUGAAUUACACC: 0.463
UCUCUUGUUGCCCAGGCUGGAGGGCAAUGGCGUGAUCUUGGCUCACUGCAACUUCCACCUCCUGGGUUCAAGUGAUUCUCCUGCCUCACUCCCAAGUAGCUGGGAUUACA: 0.48

Set 3
Substance: HSPA5 (Homo sapiens, UniProt P11021)
Method: cross-linking MS
Notes: hits only
Quantity: interaction screen
PDIA6 (Homo sapiens, UniProt Q15084): cross-linked
HYOU1 (Homo sapiens, UniProt Q9Y4L1): cross-linked
MRC1 (Homo sapiens, UniProt P22897): cross-linked
HSP90B1 (Homo sapiens, UniProt P14625): cross-linked

Set 4
Target: CCNB3, cyclin fold, Cln2 fusion (human)
Method: yeast growth competition, sequencing
Medium: yeast
Notes: strong parent motif
Relative to: not given
Direction: higher = stronger binding
Quantity: normalised enrichment score
Starting sequence: viral docking peptide; YKVKRRLVFGADD; partner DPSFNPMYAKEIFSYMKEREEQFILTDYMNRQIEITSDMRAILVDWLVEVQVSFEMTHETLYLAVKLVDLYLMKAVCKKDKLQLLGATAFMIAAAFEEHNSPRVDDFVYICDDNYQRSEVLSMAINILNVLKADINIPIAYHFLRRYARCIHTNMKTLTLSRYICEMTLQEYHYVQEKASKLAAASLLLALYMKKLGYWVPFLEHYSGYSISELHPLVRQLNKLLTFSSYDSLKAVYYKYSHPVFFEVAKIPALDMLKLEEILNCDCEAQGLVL
YKVKKRLVLGADD [R5K F9L]: -0.0231
YKVKRRLVFGAFD [D12F]: 1.22
YKVQRRLVFGADD [K4Q]: 0.513
YKVKRVLVFGADD [R6V]: 2.23
YNVKRRLVFGADD [K2N]: 2.79
YKVKRRLVFGRDD [A11R]: 1.66
YKFKRRLVFGADD [V3F]: 0.834
YKVKRRLVFSADD [G10S]: 1.74
YKIKRRLVFGADD [V3I]: 1.18
YKVKRRLVFGAGD [D12G]: 1.72
YKVKRRLVIGADD [F9I]: 0.355
YKVVRRLVFGADD [K4V]: 0.696
YKVWRRLVFGADD [K4W]: 1.15
YKVKRWLVFGADD [R6W]: 0.243

Excerpt of the above (set 2):
AUUUUUAUUUUUUUUAUUAUUAAAUGAUGUGGUCUAUGGAAAAAAAAAUAAAAAUCUGACUUAGUUUAAACUGUGUGAGUGGCUUUCUUUGGGCAGGUUAAGAAGCCACU: 1.2
AAGAGAACUCCAGGCUCAGCAUUCUGUUGAGUAACUUGCUACCUGCUCGGCUUUCCACUCUGCCAGGUCCACAUGGCAGGUGCCUCUCCUUCAUUUCUGGUGGCUUGGCU: 0.269
CUUUUUGUAUUUUUUAGUAGAGAUGGGGUUUACCAUGUUGGCCAGGCUAGUCUCAAACUCCUGACCUAGUGAUGCACCCACCUUGGCCUCCCAAAGUGUUGGGAUUACAG: 0.48
UAGAAAUCCAUGAACACUAAAGGACUUCAUUGAUUUUUUCAGAGAGUAGAAAACAACUUAGUUUUUCUUUUUUCCUGAAUGCGUCAUAGGCUUGUGAGUGAUUUUUGUCC: 0.62
